Published values collected from several papers.
Numbered parts are unrelated; each lists some results of a single study. Several values in a cell are separate wells, animals, samples, runs or records.
Chain of UniProt P23443 (whole entry, looked up): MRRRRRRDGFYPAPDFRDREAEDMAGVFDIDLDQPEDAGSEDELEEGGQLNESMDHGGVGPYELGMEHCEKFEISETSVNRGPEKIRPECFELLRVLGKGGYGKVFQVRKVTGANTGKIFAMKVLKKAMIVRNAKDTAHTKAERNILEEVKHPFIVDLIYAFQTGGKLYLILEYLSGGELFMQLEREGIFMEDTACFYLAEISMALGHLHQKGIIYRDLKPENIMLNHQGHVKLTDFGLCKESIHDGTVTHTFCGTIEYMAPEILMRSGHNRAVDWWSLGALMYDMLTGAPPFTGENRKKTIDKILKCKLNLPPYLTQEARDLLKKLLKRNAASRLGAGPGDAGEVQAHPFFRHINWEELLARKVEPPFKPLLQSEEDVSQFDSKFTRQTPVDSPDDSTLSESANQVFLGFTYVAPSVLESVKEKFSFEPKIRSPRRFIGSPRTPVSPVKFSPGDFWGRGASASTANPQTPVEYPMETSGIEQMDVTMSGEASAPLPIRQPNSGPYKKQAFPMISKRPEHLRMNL
Chain of UniProt P07333 (whole entry, looked up): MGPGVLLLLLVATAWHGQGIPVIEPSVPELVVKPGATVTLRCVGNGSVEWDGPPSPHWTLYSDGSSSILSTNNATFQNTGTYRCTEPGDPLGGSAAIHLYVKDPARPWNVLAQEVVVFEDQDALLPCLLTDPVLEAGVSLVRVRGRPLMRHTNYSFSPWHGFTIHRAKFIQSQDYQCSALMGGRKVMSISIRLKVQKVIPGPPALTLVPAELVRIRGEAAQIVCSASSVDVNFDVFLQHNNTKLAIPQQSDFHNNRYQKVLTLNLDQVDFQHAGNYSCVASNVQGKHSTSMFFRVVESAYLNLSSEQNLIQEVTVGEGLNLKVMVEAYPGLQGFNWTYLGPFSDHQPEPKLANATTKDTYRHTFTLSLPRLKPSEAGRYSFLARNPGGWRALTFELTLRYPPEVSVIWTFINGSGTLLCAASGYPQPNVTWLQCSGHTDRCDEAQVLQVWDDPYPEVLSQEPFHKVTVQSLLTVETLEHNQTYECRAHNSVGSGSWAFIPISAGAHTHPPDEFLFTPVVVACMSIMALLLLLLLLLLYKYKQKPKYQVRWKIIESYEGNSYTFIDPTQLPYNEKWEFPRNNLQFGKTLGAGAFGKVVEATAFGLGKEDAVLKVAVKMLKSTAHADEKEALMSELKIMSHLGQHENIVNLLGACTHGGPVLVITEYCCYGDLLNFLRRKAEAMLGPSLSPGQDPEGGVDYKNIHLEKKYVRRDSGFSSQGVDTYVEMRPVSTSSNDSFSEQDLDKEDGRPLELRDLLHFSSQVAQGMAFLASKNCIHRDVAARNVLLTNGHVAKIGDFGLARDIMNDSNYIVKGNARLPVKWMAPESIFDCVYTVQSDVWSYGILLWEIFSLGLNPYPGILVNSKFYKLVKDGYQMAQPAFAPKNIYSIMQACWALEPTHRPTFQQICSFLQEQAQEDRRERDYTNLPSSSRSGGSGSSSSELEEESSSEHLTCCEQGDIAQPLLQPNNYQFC
Chain of UniProt Q02156 (whole entry, looked up): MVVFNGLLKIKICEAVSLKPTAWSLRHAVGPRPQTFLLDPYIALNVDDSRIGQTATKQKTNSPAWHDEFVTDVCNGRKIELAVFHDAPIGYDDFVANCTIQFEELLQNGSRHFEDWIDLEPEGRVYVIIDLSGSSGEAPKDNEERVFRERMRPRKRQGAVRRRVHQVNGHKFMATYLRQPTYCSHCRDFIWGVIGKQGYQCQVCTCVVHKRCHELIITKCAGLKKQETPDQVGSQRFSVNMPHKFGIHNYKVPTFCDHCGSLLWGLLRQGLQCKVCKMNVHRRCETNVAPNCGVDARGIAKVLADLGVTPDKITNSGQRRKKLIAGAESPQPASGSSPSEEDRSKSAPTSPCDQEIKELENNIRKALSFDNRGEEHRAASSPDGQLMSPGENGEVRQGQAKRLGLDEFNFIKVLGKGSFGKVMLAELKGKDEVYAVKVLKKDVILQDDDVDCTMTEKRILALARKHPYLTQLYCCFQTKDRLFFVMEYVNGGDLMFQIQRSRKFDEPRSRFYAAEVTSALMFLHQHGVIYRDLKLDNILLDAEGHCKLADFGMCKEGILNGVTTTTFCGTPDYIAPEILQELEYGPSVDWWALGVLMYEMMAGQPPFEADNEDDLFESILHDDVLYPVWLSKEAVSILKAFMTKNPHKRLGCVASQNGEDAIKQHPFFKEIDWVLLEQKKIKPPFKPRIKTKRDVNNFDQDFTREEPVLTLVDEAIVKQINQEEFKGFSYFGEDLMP
Chain of UniProt Q9BRS2 (whole entry, looked up): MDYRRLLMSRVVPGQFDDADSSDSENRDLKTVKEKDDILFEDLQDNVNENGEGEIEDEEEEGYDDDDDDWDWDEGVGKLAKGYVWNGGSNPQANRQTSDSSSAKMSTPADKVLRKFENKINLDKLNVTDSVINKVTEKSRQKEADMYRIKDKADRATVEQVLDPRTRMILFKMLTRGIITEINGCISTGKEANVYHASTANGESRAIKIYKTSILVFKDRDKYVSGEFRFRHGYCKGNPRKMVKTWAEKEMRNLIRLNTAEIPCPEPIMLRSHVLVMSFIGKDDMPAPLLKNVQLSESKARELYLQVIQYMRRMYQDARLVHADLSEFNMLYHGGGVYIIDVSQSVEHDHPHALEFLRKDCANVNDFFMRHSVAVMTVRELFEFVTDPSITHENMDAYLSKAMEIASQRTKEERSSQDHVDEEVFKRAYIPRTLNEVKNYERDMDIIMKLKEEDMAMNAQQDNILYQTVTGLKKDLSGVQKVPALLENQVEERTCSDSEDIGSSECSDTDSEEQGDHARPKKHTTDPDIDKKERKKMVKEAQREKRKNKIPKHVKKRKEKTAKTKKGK
Chain of UniProt O60285 (whole entry, looked up): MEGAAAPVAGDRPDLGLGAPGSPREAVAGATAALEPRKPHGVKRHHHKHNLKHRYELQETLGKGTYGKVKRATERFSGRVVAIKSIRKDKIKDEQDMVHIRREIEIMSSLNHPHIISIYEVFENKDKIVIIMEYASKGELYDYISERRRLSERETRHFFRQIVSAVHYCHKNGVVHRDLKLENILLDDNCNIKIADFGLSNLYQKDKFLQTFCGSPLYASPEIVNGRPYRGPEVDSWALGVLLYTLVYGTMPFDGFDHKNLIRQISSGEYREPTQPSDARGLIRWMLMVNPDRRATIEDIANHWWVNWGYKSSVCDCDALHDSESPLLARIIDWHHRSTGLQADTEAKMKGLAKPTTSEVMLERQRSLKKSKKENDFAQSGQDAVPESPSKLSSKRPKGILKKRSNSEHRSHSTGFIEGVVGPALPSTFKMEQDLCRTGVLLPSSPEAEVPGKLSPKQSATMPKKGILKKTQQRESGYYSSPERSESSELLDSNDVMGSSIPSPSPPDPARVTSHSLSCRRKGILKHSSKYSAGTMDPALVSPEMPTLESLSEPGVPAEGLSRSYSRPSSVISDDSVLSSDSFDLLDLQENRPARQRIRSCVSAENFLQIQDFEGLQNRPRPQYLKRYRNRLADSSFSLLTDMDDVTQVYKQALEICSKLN
Chain of UniProt Q9HBY8 (whole entry, looked up): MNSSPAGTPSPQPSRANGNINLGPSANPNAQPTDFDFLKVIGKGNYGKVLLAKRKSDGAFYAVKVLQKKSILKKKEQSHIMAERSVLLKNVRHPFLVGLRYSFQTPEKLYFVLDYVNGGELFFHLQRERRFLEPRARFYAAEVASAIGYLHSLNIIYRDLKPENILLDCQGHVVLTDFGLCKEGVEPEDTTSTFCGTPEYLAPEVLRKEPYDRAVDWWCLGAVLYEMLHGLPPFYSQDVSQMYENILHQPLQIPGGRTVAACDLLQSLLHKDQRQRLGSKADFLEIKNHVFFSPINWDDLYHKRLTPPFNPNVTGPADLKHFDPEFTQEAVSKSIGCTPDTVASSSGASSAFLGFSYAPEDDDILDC

Sample 1
Structure (SMILES): CCC(=O)Nc1ccc2ncnc(Nc3cccc(Br)c3)c2c1
Effect on: enzyme activity
Action: inhibitor
Tested at: 0.5 µM
Baseline: control
Quantity: remaining activity
Serine/threonine-protein kinase Sgk1 (SGK1, Homo sapiens, UniProt O00141): 84.6%
Serine/threonine-protein kinase PAK 2 (PAK2, Homo sapiens, UniProt Q13177): 101%
Receptor-type tyrosine-protein kinase FLT3 (FLT3, Homo sapiens, UniProt P36888): 94.1%
NUAK family SNF1-like kinase 1 (NUAK1, Homo sapiens, UniProt O60285): 87.3%
SRSF protein kinase 3 (SRPK3, Homo sapiens, UniProt Q9UPE1): 97%
Fibroblast growth factor receptor 4 (FGFR4, Homo sapiens, UniProt P22455): 95.2%
Myosin light chain kinase, smooth muscle (MYLK, Homo sapiens, UniProt Q15746): 95.5%
Protein kinase C gamma type (PRKCG, Homo sapiens, UniProt P05129): 102%
Aurora kinase C (AURKC, Homo sapiens, UniProt Q9UQB9): 102%
Ephrin type-B receptor 2 (EPHB2, Homo sapiens, UniProt P29323): 95.1%
Macrophage colony-stimulating factor 1 receptor (CSF1R, Homo sapiens, UniProt P07333): 98.9%
Ephrin type-A receptor 7 (EPHA7, Homo sapiens, UniProt Q15375): 102%
Ribosomal protein S6 kinase beta-1 (RPS6KB1, Homo sapiens, UniProt P23443): 91.2%
Protein kinase C epsilon type (PRKCE, Homo sapiens, UniProt Q02156): 99.7%
Cytoplasmic tyrosine-protein kinase BMX (BMX, Homo sapiens, UniProt P51813): 98.7%
Glycogen synthase kinase-3 alpha (GSK3A, Homo sapiens, UniProt P49840): 98.2%
Ribosomal protein S6 kinase alpha-1 (RPS6KA1, Homo sapiens, UniProt Q15418): 88.7%
G protein-coupled receptor kinase 6 (GRK6, Homo sapiens, UniProt P43250): 97.6%
Serine/threonine-protein kinase pim-2 (PIM2, Homo sapiens, UniProt Q9P1W9): 90.3%
Beta-adrenergic receptor kinase 1 (GRK2, Homo sapiens, UniProt P25098): 112%
Tyrosine-protein kinase CSK (CSK, Homo sapiens, UniProt P41240): 89.5%

Sample 2
Structure (SMILES): O=c1nc(-c2ccccn2)sc2ccccc12
Method: competition with immobilised ligand
Tested at: 1 µM
Quantity: remaining binding
Serine/threonine-protein kinase 24 (STK24, Homo sapiens, UniProt Q9Y6E0); binding: 100%
Epidermal growth factor receptor (EGFR, Homo sapiens, UniProt P00533, A750P/del747-749); cell-free assay: 70%
Leukocyte tyrosine kinase receptor (LTK, Homo sapiens, UniProt P29376); cell-free assay: 99%
Serine/threonine-protein kinase RIO1 (RIOK1, Homo sapiens, UniProt Q9BRS2); binding: 85%
Serine/threonine-protein kinase 25 (STK25, Homo sapiens, UniProt O00506); binding: 100%
Ribosomal protein S6 kinase alpha-3, C-terminal kinase domain (RPS6KA3, Homo sapiens, UniProt P51812); binding: 88%
Misshapen-like kinase 1 (MINK1, Homo sapiens, UniProt Q8N4C8); binding: 83%
Receptor tyrosine-protein kinase erbB-4 (ERBB4, Homo sapiens, UniProt Q15303); binding: 96%
Dual specificity protein kinase CLK2 (CLK2, Homo sapiens, UniProt P49760); binding: 80%
Receptor-type tyrosine-protein kinase FLT3 (FLT3, Homo sapiens, UniProt P36888, D835H); binding: 74%
Mitogen-activated protein kinase 3 (MAPK3, Homo sapiens, UniProt P27361); binding: 80%
Ribosomal protein S6 kinase beta-1 (RPS6KB1, Homo sapiens, UniProt P23443); binding: 100%
Mitogen-activated protein kinase 9 (MAPK9, Homo sapiens, UniProt P45984); binding: 100%
Serine/threonine-protein kinase PAK 1 (PAK1, Homo sapiens, UniProt Q13153); cell-free assay: 94%
Mitogen-activated protein kinase 1 (MAPK1, Homo sapiens, UniProt P28482); binding: 91%
Serine/threonine-protein kinase DCLK2 (DCLK2, Homo sapiens, UniProt Q8N568); binding: 97%
RAC-beta serine/threonine-protein kinase (AKT2, Homo sapiens, UniProt P31751); binding: 100%
Receptor-type tyrosine-protein kinase FLT3 (FLT3, Homo sapiens, UniProt P36888, K663Q); binding: 100%
Serine/threonine-protein kinase Sgk2 (SGK2, Homo sapiens, UniProt Q9HBY8); binding: 85%
Myosin-IIIb (MYO3B, Homo sapiens, UniProt Q8WXR4); binding: 79%
Mitogen-activated protein kinase 14 (MAPK14, Homo sapiens, UniProt Q16539); binding: 94%
Macrophage colony-stimulating factor 1 receptor, autoinhibited (CSF1R, Homo sapiens, UniProt P07333); cell-free assay: 95%
Calcium/calmodulin-dependent protein kinase type II subunit beta (CAMK2B, Homo sapiens, UniProt Q13554); cell-free assay: 100%
cAMP-dependent protein kinase catalytic subunit PRKX (PRKX, Homo sapiens, UniProt P51817); cell-free assay: 100%
Mitogen-activated protein kinase 10 (MAPK10, Homo sapiens, UniProt P53779); binding: 100%

Sample 3
Target: Eukaryotic initiation factor 4A-III (Homo sapiens, UniProt P38919)
Chain of UniProt P38919 (whole entry, looked up): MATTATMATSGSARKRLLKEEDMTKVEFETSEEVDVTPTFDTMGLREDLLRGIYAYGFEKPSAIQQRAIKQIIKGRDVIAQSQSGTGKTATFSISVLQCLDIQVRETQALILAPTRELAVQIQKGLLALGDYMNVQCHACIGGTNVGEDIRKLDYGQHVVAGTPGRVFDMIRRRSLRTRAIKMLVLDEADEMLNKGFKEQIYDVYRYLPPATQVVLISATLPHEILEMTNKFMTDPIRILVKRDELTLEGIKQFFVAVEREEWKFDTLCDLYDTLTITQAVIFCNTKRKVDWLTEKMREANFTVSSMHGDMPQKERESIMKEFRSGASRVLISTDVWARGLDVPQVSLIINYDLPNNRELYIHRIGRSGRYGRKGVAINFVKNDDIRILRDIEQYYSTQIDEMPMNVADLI
Effect on: RNA clamping
Method: fluorescence polarization
Tested at: concentration not given
Notes: mean of two replicates
With: FAM-labelled poly r(AG)8 RNA
Quantity: fluorescence polarization change
COc1ccc([C@@]23Oc4cc(OC)cc(OC)c4[C@]2(O)C2=NNC(=O)C2=C3c2ccccc2)cc1: -0.2 mP
C=CCN[C@@]12C(=O)[C@H](C(=O)OC)[C@@H](c3ccccc3)[C@]1(c1ccc(OC)cc1)Oc1cc(OC)cc(OC)c12: 1.8 mP
COC(=O)[C@@H]1[C@@H](c2ccccc2)[C@]2(c3ccc(OC)cc3)Oc3cc(OC)cc(OC)c3[C@@]23OC(c2ccc(C(F)(F)F)cc2)=N[C@@]13O: -1.7 mP
COC(=O)[C@@H]1[C@@H](c2ccccc2)[C@]2(c3ccc(OC)cc3)Oc3cc(OC)cc(OC)c3[C@@]23NC(c2ccc(N(C)C)cc2)=N[C@@]13O: 21.9 mP
COc1ccc([C@@]23Oc4cc(OC)cc(OC)c4[C@]2(O)[C@H](O)[C@H](C(=O)c2ccc(C)o2)[C@H]3c2ccccc2)cc1: 19 mP
CCOCCOCCN(OC)C(=O)[C@H]1[C@@H](O)[C@@]2(O)c3c(OC)cc(OC)cc3O[C@@]2(c2ccc(OC)cc2)[C@@H]1c1ccccc1: 14.6 mP
CN[C@@]12C(=O)[C@H](C(=O)OC)[C@@H](c3ccccc3)[C@]1(c1ccc(OC)cc1)Oc1cc(OC)cc(OC)c12: 7.7 mP
COc1ccc([C@@]23Oc4cc(OC)cc(OC)c4[C@]2(O)c2nc(C4CC4)[nH]c(=O)c2[C@H]3c2ccccc2)cc1: 38.7 mP and 29.7 mP and 35 mP
COc1ccc([C@@]23Oc4cc(OC)cc(OC)c4[C@]2(O)[C@H](O)[C@H](C(=O)c2ccccc2OC)[C@H]3c2ccccc2)cc1: 7.8 mP
COC(=O)[C@@H]1[C@@H](O)[C@@]2(O)c3c(OC)cc(OS(=O)(=O)c4ccc(C)cc4)cc3O[C@@]2(c2ccc(Br)cc2)[C@H]1c1ccccc1: 3.3 mP
COc1ccc([C@]23Oc4cc(OC)cc(OC)c4[C@](O)([C@H](C(=O)OCc4ccccc4)[C@H]2c2ccccc2)[C@@H]3O)cc1: 1.6 mP
COc1ccc([C@@]23Oc4cc(OC)cc(OC)c4[C@]2(O)C2=C(C(=O)N4CCC[C@@]4(C)N2)[C@H]3c2ccccc2)cc1: 5.2 mP
CCCCN[C@@]12C(=O)[C@H](C(=O)OC)[C@@H](c3ccccc3)[C@]1(c1ccc(OC)cc1)Oc1cc(OC)cc(OC)c12: 10.5 mP
COC(=O)[C@@H]1[C@@H](c2ccccc2)[C@]2(c3ccc(OC)cc3)Oc3cc(OC)cc(OC)c3[C@@]23NC(N2CCOCC2)=N[C@@]13O: 40.6 mP
CCOC(=O)COc1cc(OC)c2c(c1)O[C@@]1(c3ccc(OC)cc3)[C@H](c3ccccc3)c3c(nc(-c4ccccc4)[nH]c3=O)[C@@]21OCC(=O)OCC: -1.1 mP

Sample 4
Host: human
Medium: microsomes or S9
Tested at: 2 µM
Time: 0.5 h
Quantity: remaining compound
COc1ccc(CC(=O)NCc2csc(C)n2)cc1: 99.8%
COc1ccc(C2CC(c3cccs3)=NN2S(C)(=O)=O)cc1OC (stereo not shown): 11.7%
C/C(=C\COc1ccc2ccc(=O)oc2c1)CC[C@H]1C(C)(C)[C@@H](O)CC[C@@]1(C)O: 46.7%
CC(=O)Nc1ccccc1C(c1ccc(C)o1)c1ccc(C)o1: 33.4%
Cc1nc(S(=O)(=O)NCc2c3c(nn2C)CCC3)cn1C: 37.4%
Cc1ccn(-c2ccc(NS(=O)(=O)c3ccc4c(c3)Cc3ccccc3-4)cc2)n1: 70.6%
CCN(CC)CCNc1c2c(nc3cc(-c4cccc(F)c4)nn13)CCCC2: 0.238%
O=S(=O)(c1ccc(F)cc1Cl)N1CC[C@H]2[C@H](C1)OCc1cnnn12: 73.3%
COC(=O)c1c(C)[nH]c(C(=O)CN2CCCC2c2nc3ccccc3s2)c1C (stereo not shown): 0.505%
CC(O)c1ccc(-c2ccc(CNn3nnnc3N)o2)cc1 (stereo not shown): > 99.9%
COc1cc(-c2c3oc4cc(O)ccc4c3nc3c2c(O)nn3C2CCCCC2)ccc1O: 58.1%
CCOC(=O)c1ccccc1NS(=O)(=O)CC: 65.4%
